Results from different studies.
Compare with care: the assays were run in different laboratories. ± gives the spread as reported.
Neuronal acetylcholine receptor; alpha3/beta2: Neuronal acetylcholine receptor; alpha3/beta2 (Rattus norvegicus, UniProt P04757+P12390)
Salicylate synthetase, Irp9: Salicylate synthetase, Irp9 (Yersinia enterocolitica, UniProt Q9X9I8)
ache: Acetylcholinesterase (ache, Electrophorus electricus, UniProt O42275)
NOX1: NADPH oxidase 1 (NOX1, Homo sapiens, UniProt Q9Y5S8)
CYBB: NADPH oxidase 2 (CYBB, Homo sapiens, UniProt P04839)

Amino acid sequences for entries named in this document (tags omitted). Residues count along the entry.
UniProt P04757, 26-499 limits assumed: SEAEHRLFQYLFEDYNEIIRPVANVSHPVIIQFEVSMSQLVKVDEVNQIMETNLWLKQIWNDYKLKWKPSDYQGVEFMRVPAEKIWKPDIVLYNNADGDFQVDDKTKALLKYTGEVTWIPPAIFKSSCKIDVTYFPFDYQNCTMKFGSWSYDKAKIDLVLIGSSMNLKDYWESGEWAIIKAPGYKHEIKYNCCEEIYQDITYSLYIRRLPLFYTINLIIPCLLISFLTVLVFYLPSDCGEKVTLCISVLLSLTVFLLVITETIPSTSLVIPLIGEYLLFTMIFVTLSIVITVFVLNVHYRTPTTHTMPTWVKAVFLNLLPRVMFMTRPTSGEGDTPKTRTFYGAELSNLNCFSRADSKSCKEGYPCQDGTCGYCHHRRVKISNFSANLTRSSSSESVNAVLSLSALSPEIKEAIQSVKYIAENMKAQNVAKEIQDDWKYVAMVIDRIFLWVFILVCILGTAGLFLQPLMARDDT
UniProt P04757, whole entry, looked up: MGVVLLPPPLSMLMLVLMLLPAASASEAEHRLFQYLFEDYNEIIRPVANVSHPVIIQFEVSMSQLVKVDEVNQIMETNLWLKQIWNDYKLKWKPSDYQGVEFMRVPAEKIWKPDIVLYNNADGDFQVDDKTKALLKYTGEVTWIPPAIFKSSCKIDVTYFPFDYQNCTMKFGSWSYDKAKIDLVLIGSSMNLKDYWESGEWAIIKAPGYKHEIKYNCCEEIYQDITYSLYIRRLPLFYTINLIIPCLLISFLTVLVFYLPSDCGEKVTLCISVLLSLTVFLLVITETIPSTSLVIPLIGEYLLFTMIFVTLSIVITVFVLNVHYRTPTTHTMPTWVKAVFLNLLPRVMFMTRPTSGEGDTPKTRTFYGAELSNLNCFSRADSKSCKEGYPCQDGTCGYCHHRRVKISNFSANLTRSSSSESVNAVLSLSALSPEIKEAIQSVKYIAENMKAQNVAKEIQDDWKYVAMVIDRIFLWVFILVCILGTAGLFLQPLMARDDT
UniProt P12390, 25-500 limits assumed: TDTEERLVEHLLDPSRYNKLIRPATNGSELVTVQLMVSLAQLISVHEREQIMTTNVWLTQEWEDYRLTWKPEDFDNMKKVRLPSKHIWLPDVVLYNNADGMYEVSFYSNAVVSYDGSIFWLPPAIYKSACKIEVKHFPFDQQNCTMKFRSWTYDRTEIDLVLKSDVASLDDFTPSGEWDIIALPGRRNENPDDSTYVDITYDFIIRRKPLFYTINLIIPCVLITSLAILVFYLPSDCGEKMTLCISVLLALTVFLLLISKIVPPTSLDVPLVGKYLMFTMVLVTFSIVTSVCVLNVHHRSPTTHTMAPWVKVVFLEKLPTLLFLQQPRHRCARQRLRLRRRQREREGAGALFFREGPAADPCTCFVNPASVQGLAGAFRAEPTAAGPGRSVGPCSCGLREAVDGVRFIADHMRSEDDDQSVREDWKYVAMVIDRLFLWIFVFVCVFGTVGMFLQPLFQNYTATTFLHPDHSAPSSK
UniProt P12390, whole entry, looked up: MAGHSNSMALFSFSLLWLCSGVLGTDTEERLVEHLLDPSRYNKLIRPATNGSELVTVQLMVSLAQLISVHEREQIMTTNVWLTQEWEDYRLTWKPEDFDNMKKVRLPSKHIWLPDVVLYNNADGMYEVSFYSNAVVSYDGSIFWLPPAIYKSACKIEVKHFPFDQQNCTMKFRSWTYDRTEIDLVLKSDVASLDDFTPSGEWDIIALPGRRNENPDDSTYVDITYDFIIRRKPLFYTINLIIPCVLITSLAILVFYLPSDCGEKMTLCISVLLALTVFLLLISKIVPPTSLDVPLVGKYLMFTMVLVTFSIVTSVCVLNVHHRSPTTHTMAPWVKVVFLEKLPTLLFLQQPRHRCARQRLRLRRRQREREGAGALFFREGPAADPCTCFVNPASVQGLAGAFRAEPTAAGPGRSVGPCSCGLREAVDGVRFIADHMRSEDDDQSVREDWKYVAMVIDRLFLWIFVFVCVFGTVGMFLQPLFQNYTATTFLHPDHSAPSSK
UniProt Q9X9I8, 1-434: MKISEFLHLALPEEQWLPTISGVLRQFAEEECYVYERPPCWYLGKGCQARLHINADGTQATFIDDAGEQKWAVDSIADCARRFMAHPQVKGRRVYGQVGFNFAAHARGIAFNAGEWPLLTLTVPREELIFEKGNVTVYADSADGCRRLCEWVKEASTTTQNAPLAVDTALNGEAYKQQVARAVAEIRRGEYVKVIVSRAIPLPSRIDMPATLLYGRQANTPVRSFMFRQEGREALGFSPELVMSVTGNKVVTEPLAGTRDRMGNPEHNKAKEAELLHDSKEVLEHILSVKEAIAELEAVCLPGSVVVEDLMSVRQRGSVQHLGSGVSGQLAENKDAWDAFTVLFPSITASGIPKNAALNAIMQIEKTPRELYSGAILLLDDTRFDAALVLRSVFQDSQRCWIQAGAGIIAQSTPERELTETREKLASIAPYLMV
UniProt O42275, 24-633 limits assumed: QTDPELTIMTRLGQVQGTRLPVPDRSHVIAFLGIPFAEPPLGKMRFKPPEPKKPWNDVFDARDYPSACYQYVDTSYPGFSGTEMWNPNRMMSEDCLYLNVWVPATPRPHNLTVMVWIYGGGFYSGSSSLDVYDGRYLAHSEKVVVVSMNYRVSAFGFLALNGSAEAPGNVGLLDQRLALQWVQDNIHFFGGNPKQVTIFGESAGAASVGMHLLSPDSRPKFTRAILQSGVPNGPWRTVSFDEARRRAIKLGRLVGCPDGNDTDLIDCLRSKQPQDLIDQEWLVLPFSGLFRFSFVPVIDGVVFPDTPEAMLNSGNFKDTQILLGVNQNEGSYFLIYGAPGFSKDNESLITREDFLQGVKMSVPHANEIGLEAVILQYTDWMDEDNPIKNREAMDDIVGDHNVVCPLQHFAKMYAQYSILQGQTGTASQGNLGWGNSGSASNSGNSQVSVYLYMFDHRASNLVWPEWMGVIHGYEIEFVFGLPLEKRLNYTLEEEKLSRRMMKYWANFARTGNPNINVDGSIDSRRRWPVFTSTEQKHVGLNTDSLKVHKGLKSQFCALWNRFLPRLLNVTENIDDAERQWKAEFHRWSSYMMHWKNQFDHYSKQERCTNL
UniProt Q9Y5S8, whole entry: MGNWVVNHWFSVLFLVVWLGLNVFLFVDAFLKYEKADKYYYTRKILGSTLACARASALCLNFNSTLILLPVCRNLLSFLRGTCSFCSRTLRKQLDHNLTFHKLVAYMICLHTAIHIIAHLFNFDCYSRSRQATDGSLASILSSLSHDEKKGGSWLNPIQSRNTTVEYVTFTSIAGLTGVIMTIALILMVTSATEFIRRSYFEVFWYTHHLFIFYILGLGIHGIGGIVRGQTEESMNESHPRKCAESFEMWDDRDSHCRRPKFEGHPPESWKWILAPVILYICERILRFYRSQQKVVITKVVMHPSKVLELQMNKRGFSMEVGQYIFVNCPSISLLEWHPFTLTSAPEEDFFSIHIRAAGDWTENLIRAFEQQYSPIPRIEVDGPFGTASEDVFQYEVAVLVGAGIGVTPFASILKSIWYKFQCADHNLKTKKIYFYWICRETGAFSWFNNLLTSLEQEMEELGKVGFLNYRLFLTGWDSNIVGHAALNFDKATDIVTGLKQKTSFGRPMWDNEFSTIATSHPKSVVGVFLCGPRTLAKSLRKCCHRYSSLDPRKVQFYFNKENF
UniProt O75762, whole entry: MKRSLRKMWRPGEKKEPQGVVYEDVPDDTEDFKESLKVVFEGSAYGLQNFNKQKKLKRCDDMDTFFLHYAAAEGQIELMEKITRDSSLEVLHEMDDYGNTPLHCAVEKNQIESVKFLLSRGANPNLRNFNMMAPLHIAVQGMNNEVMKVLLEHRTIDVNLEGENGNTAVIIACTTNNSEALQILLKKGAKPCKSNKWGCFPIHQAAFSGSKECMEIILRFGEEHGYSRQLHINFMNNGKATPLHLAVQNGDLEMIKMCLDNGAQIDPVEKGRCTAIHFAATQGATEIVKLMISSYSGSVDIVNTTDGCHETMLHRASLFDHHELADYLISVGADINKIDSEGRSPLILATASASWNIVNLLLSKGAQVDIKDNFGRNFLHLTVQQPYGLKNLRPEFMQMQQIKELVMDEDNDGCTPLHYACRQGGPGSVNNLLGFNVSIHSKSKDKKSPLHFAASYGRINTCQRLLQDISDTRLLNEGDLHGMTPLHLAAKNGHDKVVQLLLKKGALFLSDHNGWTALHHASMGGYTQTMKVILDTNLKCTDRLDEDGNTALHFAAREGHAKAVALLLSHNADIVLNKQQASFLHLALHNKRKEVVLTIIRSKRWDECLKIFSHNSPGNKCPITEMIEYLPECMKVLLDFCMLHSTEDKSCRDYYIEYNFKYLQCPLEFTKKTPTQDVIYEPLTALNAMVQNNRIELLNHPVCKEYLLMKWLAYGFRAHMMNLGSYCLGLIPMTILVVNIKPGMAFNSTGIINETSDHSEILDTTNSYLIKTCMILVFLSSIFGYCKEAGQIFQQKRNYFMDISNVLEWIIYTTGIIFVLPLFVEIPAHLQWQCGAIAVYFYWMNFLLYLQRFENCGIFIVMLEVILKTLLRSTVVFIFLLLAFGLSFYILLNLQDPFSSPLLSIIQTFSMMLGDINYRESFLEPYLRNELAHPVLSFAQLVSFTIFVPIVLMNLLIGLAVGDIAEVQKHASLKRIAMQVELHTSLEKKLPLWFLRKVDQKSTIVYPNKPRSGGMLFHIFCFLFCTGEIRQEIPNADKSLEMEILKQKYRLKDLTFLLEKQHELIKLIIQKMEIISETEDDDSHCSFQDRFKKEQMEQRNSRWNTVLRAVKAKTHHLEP
UniProt P05030, whole entry: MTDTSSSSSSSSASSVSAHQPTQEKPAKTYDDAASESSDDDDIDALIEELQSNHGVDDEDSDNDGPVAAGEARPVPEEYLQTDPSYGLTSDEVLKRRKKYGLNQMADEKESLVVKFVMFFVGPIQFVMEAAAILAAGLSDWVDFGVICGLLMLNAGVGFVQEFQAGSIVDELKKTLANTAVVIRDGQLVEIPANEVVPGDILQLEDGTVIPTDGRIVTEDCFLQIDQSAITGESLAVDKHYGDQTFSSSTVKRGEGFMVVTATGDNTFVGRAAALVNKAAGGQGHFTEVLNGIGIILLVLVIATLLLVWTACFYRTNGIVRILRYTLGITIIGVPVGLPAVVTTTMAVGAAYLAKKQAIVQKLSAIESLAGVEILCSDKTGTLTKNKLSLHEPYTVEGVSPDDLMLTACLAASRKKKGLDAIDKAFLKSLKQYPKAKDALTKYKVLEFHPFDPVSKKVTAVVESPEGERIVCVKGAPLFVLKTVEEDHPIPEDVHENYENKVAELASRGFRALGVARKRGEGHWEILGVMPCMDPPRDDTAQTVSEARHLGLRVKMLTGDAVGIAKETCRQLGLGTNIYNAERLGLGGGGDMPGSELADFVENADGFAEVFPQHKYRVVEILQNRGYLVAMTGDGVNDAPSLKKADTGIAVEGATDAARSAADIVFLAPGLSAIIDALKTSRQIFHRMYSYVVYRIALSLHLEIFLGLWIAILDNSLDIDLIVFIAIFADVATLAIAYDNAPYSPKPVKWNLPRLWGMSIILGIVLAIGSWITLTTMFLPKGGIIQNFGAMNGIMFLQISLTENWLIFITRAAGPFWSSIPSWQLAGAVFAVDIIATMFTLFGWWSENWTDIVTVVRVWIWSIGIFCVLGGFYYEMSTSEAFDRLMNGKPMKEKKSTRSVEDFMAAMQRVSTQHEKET
UniProt H0W3H1, 1-470: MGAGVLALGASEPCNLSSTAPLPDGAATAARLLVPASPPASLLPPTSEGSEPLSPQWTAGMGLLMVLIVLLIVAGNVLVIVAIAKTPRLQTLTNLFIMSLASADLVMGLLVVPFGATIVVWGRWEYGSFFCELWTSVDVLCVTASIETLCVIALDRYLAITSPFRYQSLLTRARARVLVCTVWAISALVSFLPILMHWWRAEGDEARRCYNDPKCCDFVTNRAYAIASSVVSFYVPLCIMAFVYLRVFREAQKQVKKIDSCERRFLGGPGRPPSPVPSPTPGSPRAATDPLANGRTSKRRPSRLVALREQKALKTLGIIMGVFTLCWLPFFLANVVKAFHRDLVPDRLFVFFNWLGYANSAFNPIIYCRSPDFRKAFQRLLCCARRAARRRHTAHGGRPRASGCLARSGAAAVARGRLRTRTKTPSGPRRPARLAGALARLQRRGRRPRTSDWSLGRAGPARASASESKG
UniProt P18507, whole entry, looked up: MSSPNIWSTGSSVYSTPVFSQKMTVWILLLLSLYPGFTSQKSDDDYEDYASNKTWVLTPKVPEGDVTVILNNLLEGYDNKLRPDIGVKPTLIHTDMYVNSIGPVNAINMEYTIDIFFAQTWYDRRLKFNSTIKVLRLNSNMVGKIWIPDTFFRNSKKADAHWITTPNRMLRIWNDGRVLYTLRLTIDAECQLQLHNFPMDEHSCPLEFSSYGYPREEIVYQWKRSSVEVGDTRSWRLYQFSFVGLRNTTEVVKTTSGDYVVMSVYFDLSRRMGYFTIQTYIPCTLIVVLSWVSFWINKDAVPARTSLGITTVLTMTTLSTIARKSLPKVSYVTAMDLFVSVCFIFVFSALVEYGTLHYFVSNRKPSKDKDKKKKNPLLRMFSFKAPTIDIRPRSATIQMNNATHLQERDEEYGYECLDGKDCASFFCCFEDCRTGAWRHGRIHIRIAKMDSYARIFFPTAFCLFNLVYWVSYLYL

Structure (SMILES) | target | test | system | setting | how to read | endpoint | value
CC(C)C[C@@H]1NC(=O)[C@H](CCC(=O)O)NC(=O)[C@@H]2CCCN2C(=O)[C@H](Cc2c[nH]cn2)NC(=O)[C@H](CC(N)=O)NC(=O)[C@H](C(C)C)NC(=O)[C@H]([C@@H](C)O)NC(=O)[C@@H]2CSSC[C@H](NC(=O)CN)C(=O)N[C@@H](CSSC[C@@H](C(N)=O)NC1=O)C(=O)N[C@@H](CO)C(=O)N[C@@H](Cc1c[nH]cn1)C(=O)N1CCC[C@H]1C(=O)N[C@@H](C)C(=O)N2 | Neuronal acetylcholine receptor; alpha3/beta2 | ion current, antagonist, two-electrode voltage clamp | Xenopus laevis oocytes | added: 100 µM acetylcholine | – | IC50 | 7.1 nM
O=[N+]([O-])c1cc(S(=O)(=O)c2cc([N+](=O)[O-])c(O)c([N+](=O)[O-])c2)cc([N+](=O)[O-])c1O | Salicylate synthetase, Irp9 | salicylate production, inhibitor | – | pH 7.5, 25 °C, added: chorismate 2 µM | – | IC50 | 80000 ± 20000 nM
C[Si](C)(C)CCOC(=O)Oc1ccc(COC(=O)Cc2ccccc2Nc2c(Cl)cccc2Cl)cc1 | ache | enzyme activity, inhibitor, Ellman | – | – | – | IC50 | 1360 ± 130 nM
Cc1cccc2nc(Sc3ncnc4c3nnn4Cc3ccccc3)oc12 | NOX1 | enzyme activity, inhibitor, Amplex Red | cell-free membranes | – | – | IC50 | > 100000 nM
CC[C@H](C)[C@H](NC(=O)[C@@H](NC(=O)[C@H](CC(=O)O)NC(=O)[C@H](CC(C)C)NC(=O)[C@H](CC(C)C)NC(=O)[C@H](CC(C)C)NC(=O)[C@H](CCCNC(=N)N)NC(=O)[C@H](CC(N)=O)NC(=O)[C@H](CC(N)=O)NC(=O)[C@H](C)NC(=O)[C@H](C)NC(=O)[C@H](CCC(N)=O)NC(=O)[C@H](CCC(N)=O)NC(=O)[C@H](CCCCN)NC(=O)[C@H](CCC(=O)O)NC(=O)[C@H](CCCCN)NC(=O)[C@H](CCC(=O)O)NC(=O)[C@H](CCC(N)=O)NC(=O)[C@H](CCCCN)NC(=O)[C@H](CCC(=O)O)NC(=O)[C@@H](NC(=O)[C@H](CCC(=O)O)NC(=O)[C@@H](NC(=O)[C@H](CCSC)NC(=O)[C@H](CCCCN)NC(=O)[C@H](CCCNC(=N)N)NC(=O)[C@H](CC(C)C)NC(=O)[C@H](CC(C)C)NC(=O)[C@H](Cc1c[nH]cn1)NC(=O)[C@H](N)Cc1ccccc1)[C@@H](C)CC)[C@@H](C)CC)[C@@H](C)O)C(N)=O | Corticotropin-releasing factor receptor 2/Corticotropin-releasing factor-binding protein (Homo sapiens, UniProt P24387+Q13324) | GTPγS binding, antagonist | – | added: CRF 1 µM | – | IC50 | 298 ± 37 nM
FC(F)(F)c1ccc2nc(Sc3ncnc4c3nnn4Cc3ccccc3)oc2c1 | DUOX1 (Homo sapiens, UniProt Q9NRD9) | enzyme activity, inhibitor, Amplex Red | cell-free membranes | – | – | IC50 | > 15000 nM
Cn1cnc2ncn(Cc3nc(CCc4ccc(Cl)cc4)no3)c(=O)c21 | Transient receptor potential cation channel subfamily A member 1 (TRPA1, Homo sapiens, UniProt O75762) | calcium influx, antagonist, FlexStation calcium | HEK-293T transfected | added: CS gas at EC50 | – | IC50 | 260 nM
Cc1ccc2nc(Sc3ncnc4c3nnn4Cc3ccccc3)oc2c1 | NOX1 | enzyme activity, inhibitor, Amplex Red | cell-free membranes | – | – | IC50 | > 100000 nM
CCC(C)C1NC(=O)/C(=C(/C)O)C1=O (centres unmarked) | Plasma membrane ATPase 1 (PMA1, Saccharomyces cerevisiae, UniProt P05030) | ATP hydrolysis, inhibitor | plasma membrane fraction | expressed in Saccharomyces cerevisiae | – | IC50 | 7800 nM
CC(C)[C@@H]1NC(=O)[C@H](CO)NC(=O)[C@@H]2CSSC[C@H](NC(=O)CN)C(=O)N[C@@H](CSSC[C@@H](C(N)=O)NC(=O)[C@H](CCCNC(=N)N)NC(=O)[C@H](CCC(=O)O)NC(=O)[C@@H]3CCCN3C(=O)[C@H](Cc3c[nH]cn3)NC(=O)[C@H](CC(N)=O)NC1=O)C(=O)N[C@@H](CO)C(=O)N[C@@H](Cc1c[nH]cn1)C(=O)N1CCC[C@H]1C(=O)N[C@@H](C)C(=O)N2 | Neuronal acetylcholine receptor; alpha3/beta2 | ion current, antagonist, two-electrode voltage clamp | Xenopus laevis oocytes | added: 100 µM acetylcholine | – | IC50 | 161 nM
COc1ccc2cc([C@H](C)C(=O)OCc3ccc(OC(=O)OCCC(C)(C)C)cc3)ccc2c1 | ache | enzyme activity, inhibitor, Ellman | – | – | – | IC50 | 1740 ± 1010 nM
CC(Cc1ccc(O)cc1)NCC(O)c1cc(O)cc(O)c1 (centres unmarked) | Synaptic vesicular amine transporter (SLC18A2, Homo sapiens, UniProt Q05940) | monoamine uptake, inhibitor | – | – | – | IC50 | 333 nM
c1ccc(Cn2nnc3c(Sc4nc5ccccc5[nH]4)ncnc32)cc1 | NOX1 | enzyme activity, inhibitor, Amplex Red | cell-free membranes | – | – | IC50 | > 100000 nM
CC(C)C[C@@H]1NC(=O)[C@H](CCC(=O)O)NC(=O)[C@@H]2CCCN2C(=O)[C@H](Cc2c[nH]cn2)NC(=O)[C@H](CC(N)=O)NC(=O)[C@H](CC(C)C)NC(=O)[C@H](Cc2c[nH]cn2)NC(=O)[C@@H]2CSSC[C@H](NC(=O)CN)C(=O)N[C@@H](CSSC[C@@H](C(N)=O)NC1=O)C(=O)N[C@@H](CO)C(=O)N[C@@H](Cc1c[nH]cn1)C(=O)N1CCC[C@H]1C(=O)N[C@@H](C)C(=O)N2 | Neuronal acetylcholine receptor; alpha3/beta2 | ion current, antagonist, two-electrode voltage clamp | Xenopus laevis oocytes | added: 100 µM acetylcholine | – | IC50 | 0.29 nM
CC(C)NCC(O)COc1ccc(CC(N)=O)cc1 (centres unmarked) | Beta-1 adrenergic receptor, high-affinity state (Cavia porcellus, UniProt H0W3H1) | binding | lung membranes | high-affinity site, added: [3H]dihydroalprenolol 2 nM | – | IC50 | 0.6 nM
CC(C)c1ccc2nc(Sc3ncnc4c3nnn4Cc3ccccc3)oc2c1 | NADPH oxidase 4 (NOX4, Homo sapiens, UniProt Q9NPH5) | enzyme activity, inhibitor, Amplex Red | cell-free membranes | – | – | IC50 | > 100000 nM

Structure (SMILES) | target | test | system | setting | how to read | endpoint | value
CC(C)C[C@@H]1NC(=O)[C@H](CCC(=O)O)NC(=O)[C@@H]2CCCN2C(=O)[C@H](Cc2c[nH]cn2)NC(=O)[C@H](CCCCC(=O)O)NC(=O)[C@H](CC(C)C)NC(=O)[C@H](Cc2c[nH]cn2)NC(=O)[C@@H]2CSSC[C@H](NC(=O)CN)C(=O)N[C@@H](CSSC[C@@H](C(N)=O)NC1=O)C(=O)N[C@@H](CO)C(=O)N[C@@H](Cc1c[nH]cn1)C(=O)N1CCC[C@H]1C(=O)N[C@@H](C)C(=O)N2 | Nicotinic acetylcholine receptor alpha6/alpha3/beta4 (Rattus norvegicus, UniProt P04757+P12392+P43143) | ACh-evoked current, antagonist, two-electrode voltage clamp | Xenopus laevis oocytes | added: ACh 300 µM | – | IC50 | 43.1 nM
O=C1S/C(=C/c2cc([N+](=O)[O-])cc([N+](=O)[O-])c2O)C(=O)N1c1ccccc1 | Salicylate synthetase, Irp9 | pyruvate production, inhibitor | – | 25 °C, added: chorismate 10 µM | – | IC50 | > 160000 nM
COc1ccc2nc(Sc3ncnc4c3nnn4Cc3ccccc3)oc2c1 | NOX1 | enzyme activity, inhibitor, Amplex Red | cell-free membranes | – | – | IC50 | > 100000 nM
C=C(C)[C@@H]1[C@H]2OC(=O)[C@@H]1[C@]1(O)C[C@H]3O[C@]34C(=O)O[C@H]2[C@]14C | GABA-A receptor; alpha-6/beta-3/gamma-2 (Homo sapiens, UniProt P18507+P28472+Q16445) | chloride current, inhibitor, whole-cell voltage clamp | L929 | 3 min preincubation, added: GABA at EC90 | – | IC50 | 5800 nM
O=C(O)c1ccccc1[As](=O)(O)O | Sphingomyelin phosphodiesterase (SMPD1, Homo sapiens, UniProt P17405) | enzyme activity, inhibitor | – | pH 5.0, added: HMU-PC substrate | – | IC50 | 270 nM
CC(C)C[C@@H]1NC(=O)[C@H](CCC(=O)O)NC(=O)[C@@H]2CCCN2C(=O)[C@H](Cc2c[nH]cn2)NC(=O)[C@H](CCC(=O)O)NC(=O)[C@H](CC(C)C)NC(=O)[C@H](Cc2c[nH]cn2)NC(=O)[C@@H]2CSSC[C@H](NC(=O)CN)C(=O)N[C@@H](CSSC[C@@H](C(N)=O)NC1=O)C(=O)N[C@@H](CO)C(=O)N[C@@H](Cc1c[nH]cn1)C(=O)N1CCC[C@H]1C(=O)N[C@@H](C)C(=O)N2 | Neuronal acetylcholine receptor; alpha3/beta2 | ion current, antagonist, two-electrode voltage clamp | Xenopus laevis oocytes | added: 100 µM acetylcholine | – | IC50 | 1.22 nM
CCN1CCN(Cc2ccc(NC(=O)c3ccc(C)c(/C=C/c4cnc5[nH]ccc5c4OC)c3)cc2C(F)(F)F)CC1 | eIF-2-alpha kinase GCN2 (EIF2AK4, Homo sapiens, UniProt Q9P2K8) | inhibitor, cell-based kinome screen | – | 5 µM | baseline: vehicle | log2 fold change | 0.144 log2
COc1cccc2[nH]cc(CCN)c12 | Sodium-dependent serotonin transporter (Slc6a4, Rattus norvegicus, UniProt P31652) | serotonin uptake, inhibitor | rat brain synaptosomes | – | – | IC50 | 4110 ± 261 nM
Clc1ccc2nc(Sc3ncnc4c3nnn4Cc3ccccc3)oc2c1 | CYBB | enzyme activity, inhibitor, MCLA chemiluminescence | cell-free membranes | – | – | IC50 | > 100000 nM
O=c1oc2cc(Br)c(O)c(Br)c2s1 | Salicylate synthetase, Irp9 | salicylate production, inhibitor | – | pH 7.5, 25 °C, added: chorismate 2 µM | – | IC50 | 60000 ± 20000 nM
CC(C)C[C@@H]1NC(=O)[C@H](CCC(=O)O)NC(=O)[C@@H]2CCCN2C(=O)[C@H](Cc2c[nH]cn2)NC(=O)[C@H](CC(=O)O)NC(=O)[C@H](CC(C)C)NC(=O)[C@H](Cc2c[nH]cn2)NC(=O)[C@@H]2CSSC[C@H](NC(=O)CN)C(=O)N[C@@H](CSSC[C@@H](C(N)=O)NC1=O)C(=O)N[C@@H](CO)C(=O)N[C@@H](Cc1c[nH]cn1)C(=O)N1CCC[C@H]1C(=O)N[C@@H](C)C(=O)N2 | Neuronal acetylcholine receptor; alpha3/beta2 | ion current, antagonist, two-electrode voltage clamp | Xenopus laevis oocytes | added: 100 µM acetylcholine | – | IC50 | 1.67 nM
COc1ccc2c(c1)c(CC(=O)OCC[Si](C)(C)C)c(C)n2C(=O)c1ccc(Cl)cc1 | ache | enzyme activity, inhibitor, Ellman | – | – | – | IC50 | 3320 ± 360 nM
CC(C)C[C@@H]1NC(=O)[C@H](CC(=O)O)NC(=O)[C@@H]2CCCN2C(=O)[C@H](Cc2c[nH]cn2)NC(=O)[C@H](CC(N)=O)NC(=O)[C@H](C(C)C)NC(=O)[C@H](CO)NC(=O)[C@@H]2CSSC[C@H](NC(=O)CN)C(=O)N[C@@H](CSSC[C@@H](C(N)=O)NC1=O)C(=O)N[C@@H](CO)C(=O)N[C@@H](Cc1c[nH]cn1)C(=O)N1CCC[C@H]1C(=O)N[C@@H](C)C(=O)N2 | Chrna3/Chrnb2/Chrna6, with beta3 subunit (Rattus norvegicus, UniProt P04757+P12390+P43143) | ion current, antagonist, two-electrode voltage clamp | Xenopus laevis oocytes | added: 100 µM acetylcholine | – | IC50 | 21 nM
c1ccc2c(NCCCNc3c4c(nc5ccccc35)CCCC4)c3c(nc2c1)CCCC3 | Amine oxidase [flavin-containing] B (MAOB, Homo sapiens, UniProt P27338) | inhibitor | – | – | – | IC50 | 116000 nM
Brc1ccc2nc(Sc3ncnc4c3nnn4Cc3ccccc3)oc2c1 | CYBB | enzyme activity, inhibitor, MCLA chemiluminescence | cell-free membranes | – | – | IC50 | > 100000 nM
Cc1c(CC(=O)O)c2ccccc2n1C1CCN(Cc2ccccc2)CC1 | Delta-type opioid receptor (Oprd1, Mus musculus, UniProt P32300) | agonist | mouse vas deferens | – | – | IC50 | 1270 ± 355 nM

For quick reference, copied from above:
Structure (SMILES) | target | test | system | setting | how to read | endpoint | value
C=C(C)[C@@H]1[C@H]2OC(=O)[C@@H]1[C@]1(O)C[C@H]3O[C@]34C(=O)O[C@H]2[C@]14C | GABA-A receptor; alpha-6/beta-3/gamma-2 (Homo sapiens, UniProt P18507+P28472+Q16445) | chloride current, inhibitor, whole-cell voltage clamp | L929 | 3 min preincubation, added: GABA at EC90 | – | IC50 | 5800 nM
CC[C@H](C)[C@H](NC(=O)[C@@H](NC(=O)[C@H](CC(=O)O)NC(=O)[C@H](CC(C)C)NC(=O)[C@H](CC(C)C)NC(=O)[C@H](CC(C)C)NC(=O)[C@H](CCCNC(=N)N)NC(=O)[C@H](CC(N)=O)NC(=O)[C@H](CC(N)=O)NC(=O)[C@H](C)NC(=O)[C@H](C)NC(=O)[C@H](CCC(N)=O)NC(=O)[C@H](CCC(N)=O)NC(=O)[C@H](CCCCN)NC(=O)[C@H](CCC(=O)O)NC(=O)[C@H](CCCCN)NC(=O)[C@H](CCC(=O)O)NC(=O)[C@H](CCC(N)=O)NC(=O)[C@H](CCCCN)NC(=O)[C@H](CCC(=O)O)NC(=O)[C@@H](NC(=O)[C@H](CCC(=O)O)NC(=O)[C@@H](NC(=O)[C@H](CCSC)NC(=O)[C@H](CCCCN)NC(=O)[C@H](CCCNC(=N)N)NC(=O)[C@H](CC(C)C)NC(=O)[C@H](CC(C)C)NC(=O)[C@H](Cc1c[nH]cn1)NC(=O)[C@H](N)Cc1ccccc1)[C@@H](C)CC)[C@@H](C)CC)[C@@H](C)O)C(N)=O | Corticotropin-releasing factor receptor 2/Corticotropin-releasing factor-binding protein (Homo sapiens, UniProt P24387+Q13324) | GTPγS binding, antagonist | – | added: CRF 1 µM | – | IC50 | 298 ± 37 nM
